Experimental data from different studies.
Every numbered part comes from another study and shows a few of its results, in no order.

Study 1
Target: Centromere-binding protein 1, full length, N-terminal tag (CBF1, Saccharomyces cerevisiae, UniProt P17106, residues 1-351)
Chain of UniProt P17106 (whole entry, looked up): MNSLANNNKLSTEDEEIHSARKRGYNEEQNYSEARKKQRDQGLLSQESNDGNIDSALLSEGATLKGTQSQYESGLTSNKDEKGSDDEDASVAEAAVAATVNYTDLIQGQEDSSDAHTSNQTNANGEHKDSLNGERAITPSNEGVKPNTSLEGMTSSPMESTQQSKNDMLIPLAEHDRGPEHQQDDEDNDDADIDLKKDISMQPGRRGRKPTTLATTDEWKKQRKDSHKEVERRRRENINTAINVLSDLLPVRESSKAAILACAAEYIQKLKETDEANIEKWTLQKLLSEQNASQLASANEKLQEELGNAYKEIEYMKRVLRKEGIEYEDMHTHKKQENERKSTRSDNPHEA
Technique: protein-binding microarray
Molecule type: double-stranded DNA, one strand shown
Medium: in vitro
Tested at: 0.8 µM
Notes: whole 60-bp probe, no competitor
Direction: higher = stronger binding
Quantity: fluorescence intensity
Shared flanks, not repeated: … GTCTTGATTCGCTTGACGCTGCTG
CTACAGATAGATGGGCACATGGCAAACTTAGCTTTC: 855 a.u.
CCTAACTACTATAACAACGTCACATAGCTTCGTACA: 536 a.u.
CTATTGCAATATCATGATGTTATAGAGTAACGTTTC: 538 a.u.
CTAAGGTGGCATAAACACAGATTAATAGTATTGTTC: 516 a.u.
GAATTGTGCTACTGTCACGATCCGCAAGAGATATAG: 592 a.u.
CTAACGCCATCTCAGCGTGTGACATGATAATTTTTC: 882 a.u.
GAACGCGATGTTGCAAGCGTGACAGATCTATACTAG: 718 a.u.
CTAAATGCCTTTGTCCATGTGATAAACCGTGCATTC: 1100 a.u.

Study 2
Target: Sal-like protein 4, full length isoform B (SALL4, Homo sapiens, UniProt Q9UJQ4-2, residues 1-616)
Technique: universal PBM
Molecule type: double-stranded DNA, one strand shown
Medium: in vitro
Tested at: not given
Notes: 8-mer, flanks averaged, mean of replicates
Direction: higher = stronger binding
Quantity: E-score
Residues (chain): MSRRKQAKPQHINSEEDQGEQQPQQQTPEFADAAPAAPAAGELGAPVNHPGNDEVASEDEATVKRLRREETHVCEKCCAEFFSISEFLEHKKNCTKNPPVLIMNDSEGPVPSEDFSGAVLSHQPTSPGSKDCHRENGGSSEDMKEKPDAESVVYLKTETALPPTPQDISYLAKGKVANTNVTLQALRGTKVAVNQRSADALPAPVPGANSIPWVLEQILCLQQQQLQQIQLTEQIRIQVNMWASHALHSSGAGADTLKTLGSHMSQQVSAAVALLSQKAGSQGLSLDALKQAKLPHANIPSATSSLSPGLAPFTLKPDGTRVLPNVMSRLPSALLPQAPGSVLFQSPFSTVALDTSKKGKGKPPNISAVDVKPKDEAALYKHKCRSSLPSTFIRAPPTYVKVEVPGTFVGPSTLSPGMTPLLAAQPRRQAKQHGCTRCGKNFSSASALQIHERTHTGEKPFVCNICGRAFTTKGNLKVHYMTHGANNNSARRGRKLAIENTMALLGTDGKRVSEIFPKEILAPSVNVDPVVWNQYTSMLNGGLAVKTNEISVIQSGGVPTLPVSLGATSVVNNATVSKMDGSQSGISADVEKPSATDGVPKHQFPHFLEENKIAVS
AGCACTCG: -0.274
TGGATGAA: 0.11
AACAATGG: 0.0726
CGTCGCAG: -0.219
CAAGATCG: 0.0363

Study 3
Substance: PhoQ, residues 284 288 289 292 302 303 SNSSNI
Technique: Sort-seq
Item: YFP reporter
Medium: E. coli
Notes: PhoQ-PhoP variant library
Added: 10 µM Mg2+
Reference: high Mg2+ state
Direction: higher = stronger signaling
Quantity: fold induction
PhoP, residues 12 14 15 18 19 TQALL (Escherichia coli, UniProt P23836): 2.87
PhoP, residues 12 14 15 18 19 QYFSL (Escherichia coli, UniProt P23836): 4.94
PhoP, residues 12 14 15 18 19 NYFRM (Escherichia coli, UniProt P23836): 6.46

Study 4
Target: Histone acetyltransferase KAT6A, both winged helices, GST fusion (KAT6A, Homo sapiens, UniProt Q92794, residues 1-181)
Technique: protein binding microarray
Molecule type: double-stranded DNA, one strand shown
Medium: in vitro
Tested at: not given
Notes: 8-mer, flanks averaged, mean of 2 arrays, mostly near background
Reference: not given
Direction: higher = stronger binding
Quantity: E-score
Construct (chain): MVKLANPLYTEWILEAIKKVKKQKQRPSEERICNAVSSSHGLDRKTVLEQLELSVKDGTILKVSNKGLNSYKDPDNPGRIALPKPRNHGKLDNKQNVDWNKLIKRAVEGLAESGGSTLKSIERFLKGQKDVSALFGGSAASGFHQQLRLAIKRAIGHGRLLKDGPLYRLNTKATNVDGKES
ATAACCAC: -0.108
GTGCATTA: 0.0243
GCTACTAA: 0.0168
CAACCATA: -0.164
ATTCCGCC: 0.115
AAGCCTCG: -0.0466
AATGCAGC: -0.0891

For quick reference, copied from above (study 1):
CTACAGATAGATGGGCACATGGCAAACTTAGCTTTC: 855 a.u.
CCTAACTACTATAACAACGTCACATAGCTTCGTACA: 536 a.u.
